Results collected from several papers.
Numbered parts are unrelated; each lists some results of a single study. “And” joins repeats or separate records; there may be more than shown.

Sample 1
Target: 5-hydroxytryptamine receptor 2B (HTR2B, Homo sapiens, UniProt P41595)
Sequence of UniProt P41595 (whole entry, looked up): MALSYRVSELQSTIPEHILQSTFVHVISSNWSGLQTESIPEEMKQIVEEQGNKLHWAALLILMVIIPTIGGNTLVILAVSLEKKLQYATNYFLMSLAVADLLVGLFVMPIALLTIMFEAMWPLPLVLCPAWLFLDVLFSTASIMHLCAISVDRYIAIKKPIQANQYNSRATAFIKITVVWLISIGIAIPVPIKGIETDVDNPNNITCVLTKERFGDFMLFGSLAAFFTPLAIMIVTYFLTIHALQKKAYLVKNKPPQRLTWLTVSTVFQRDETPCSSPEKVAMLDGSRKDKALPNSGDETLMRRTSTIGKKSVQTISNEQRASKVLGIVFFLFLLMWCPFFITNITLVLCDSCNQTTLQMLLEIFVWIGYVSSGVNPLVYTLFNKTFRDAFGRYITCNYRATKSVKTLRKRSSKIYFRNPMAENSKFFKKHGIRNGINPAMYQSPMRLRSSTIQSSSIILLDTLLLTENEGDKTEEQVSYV
Read-out: ligand displacement
Tested at: 10 µM
The inhibition of `CO[C@@H](C)c1c(Nc2ccc([C@H](N(C)C(=O)C3CCS(=O)(=O)CC3)C(F)(F)F)cc2)cnc2cc(Cl)nn12` is reported as -3.94%.
`CN(C)C(=O)Cn1cc(-c2nc(C3(c4ccc(-c5cnc(N)nc5)cc4)CC3)no2)cn1` gave an inhibition of -11.6%.
The inhibition of `O=C(Nc1ccc(Oc2ccc(F)cc2)cc1)N1CCc2ncccc2[C@H]1c1ccc(F)cc1` is reported as 52.4%.
With `FC(F)(F)c1ccc2c(c1)nc(-c1cccnc1)n2C1CC1` the inhibition was 79.7%.
The inhibition of `Cc1ccccc1Oc1cc(-n2c(=O)cc(C(F)(F)F)[nH]c2=O)c2ccccc2c1Cl` is reported as -0.49%.
`CN([C@@H]1CCc2c(CC(=O)O)c3ccccc3n2C1)S(=O)(=O)c1ccc(F)cc1` has an inhibition of -4.07%.
With `Nc1c(C(=O)NCc2ccc(C(=O)NCCCC3CCCCC3)cc2)cnn1-c1ccccc1` the inhibition was 19.9%.
`O=C(NCCCC1CCCCC1)c1ccc(CNC(=O)c2cnn(-c3ccccc3)c2C(F)(F)F)cc1` gave an inhibition of 3.69%.
For `CC1=C(C#N)C(c2ccc3[nH]nc(C)c3c2)C(C#N)=C(C)N1`, the inhibition was -10.4%.
`CC(C)CC(=O)N1CCc2nc(-c3ccc(Br)cc3)nc(N(C)Cc3ccccc3)c2C1` gave an inhibition of 7.85%.
The inhibition of `Cc1c[nH]c2nccc(Oc3c(F)cc(Nc4cc(Cl)nc(N)n4)cc3F)c12` is reported as 10.4%.
The inhibition of `O=C(NCc1ncc(C(F)(F)F)cc1Cl)c1ccc2c(c1)C1(CCS(=O)(=O)CC1)[C@H](C1CC1)N2S(=O)(=O)c1ccc(F)cc1` is reported as -2.53%.
With `COc1ccc2c(c1)O[C@H](c1ccc(OC)c(OC)c1)C[C@@H]2NC(=O)C1(c2ccc3c(c2)OC(F)(F)O3)CC1` the inhibition was 1.62%.
With `N#CN1CC[C@@H](C(=O)Nc2nc3c(s2)CN(C(=O)CN=[N+]=[N-])CC3)C1` the inhibition was 5.55%.

Sample 2
Species: human
Medium: microsomes or S9
Tested at: 2 µM
Time: 0.5 h
For `CCO[C@H]1CN(Cc2cc(=O)c3c(C)ccc(C)c3[nH]2)C[C@@H]1O`, the remaining compound was over 100%.
`CC1(COC(=O)Nc2ccc(Cl)cc2)CCC(C(C)(C)C)=NO1` (stereo not shown) has a remaining compound of over 99%.
With `CCn1nccc1-c1cc(C(=O)O)c2ccc(Cl)c(C)c2n1` the remaining compound was 94.4%.
`Cc1cc(C)cc(NC(=O)N2Cc3c(sc4c3CCCC4)-n3cccc3C2c2cccs2)c1` (stereo not shown) has a remaining compound of 32.5%.
`COC(=O)c1ccc(S(C)(=O)=O)c(O)c1Cl` gave a remaining compound of over 99%.
`Cn1cc(S(=O)(=O)N2CCCCC2)cc1C(=O)Nc1ccc2c(c1)OCCO2` gave a remaining compound of 74%.
`CN(C)c1nc2sc(C(=O)NCc3cc4ccccc4[nH]3)cc2s1` has a remaining compound of 8.86%.
With `COC(=O)c1c(=O)n(Cc2ccc(C(C)(C)C)cc2)c(=O)n2c(-c3ccc(Cl)cc3)c(-c3ccc(Cl)cc3)oc12` the remaining compound was 91.3%.
`CCc1nc(-c2ccncc2)cc2c1sc1ccccc12` has a remaining compound of 0.481%.
The remaining compound of `Cc1ccc(-c2nc3n(CC(=O)Nc4cccc(F)c4)c4c(c(=O)n3n2)CCC4)cc1` is reported as 83.2%.
For `Cc1nc(C2=C(O)CN(C3CS(=O)(=O)CC3O)C2=N)sc1C` (stereo not shown), the remaining compound was 68.7%.
With `CC(C)Cn1cc(NC(=O)NC2CCN(Cc3ccccc3)CC2)c2ccccc2c1=O` the remaining compound was 48%.
`CNc1ncc(C(=O)NC[C@H]2CC[C@@H]3C[C@H]2C3(C)C)cn1` has a remaining compound of 25.2%.
For `Cc1ccc(O)c(C(=O)c2cnc(/N=C(\N)N(C)C)nc2)c1`, the remaining compound was 98.8%.

Sample 3
Target: Dual specificity protein kinase TTK (TTK, Homo sapiens, UniProt P33981)
Sequence of UniProt P33981 (whole entry, looked up): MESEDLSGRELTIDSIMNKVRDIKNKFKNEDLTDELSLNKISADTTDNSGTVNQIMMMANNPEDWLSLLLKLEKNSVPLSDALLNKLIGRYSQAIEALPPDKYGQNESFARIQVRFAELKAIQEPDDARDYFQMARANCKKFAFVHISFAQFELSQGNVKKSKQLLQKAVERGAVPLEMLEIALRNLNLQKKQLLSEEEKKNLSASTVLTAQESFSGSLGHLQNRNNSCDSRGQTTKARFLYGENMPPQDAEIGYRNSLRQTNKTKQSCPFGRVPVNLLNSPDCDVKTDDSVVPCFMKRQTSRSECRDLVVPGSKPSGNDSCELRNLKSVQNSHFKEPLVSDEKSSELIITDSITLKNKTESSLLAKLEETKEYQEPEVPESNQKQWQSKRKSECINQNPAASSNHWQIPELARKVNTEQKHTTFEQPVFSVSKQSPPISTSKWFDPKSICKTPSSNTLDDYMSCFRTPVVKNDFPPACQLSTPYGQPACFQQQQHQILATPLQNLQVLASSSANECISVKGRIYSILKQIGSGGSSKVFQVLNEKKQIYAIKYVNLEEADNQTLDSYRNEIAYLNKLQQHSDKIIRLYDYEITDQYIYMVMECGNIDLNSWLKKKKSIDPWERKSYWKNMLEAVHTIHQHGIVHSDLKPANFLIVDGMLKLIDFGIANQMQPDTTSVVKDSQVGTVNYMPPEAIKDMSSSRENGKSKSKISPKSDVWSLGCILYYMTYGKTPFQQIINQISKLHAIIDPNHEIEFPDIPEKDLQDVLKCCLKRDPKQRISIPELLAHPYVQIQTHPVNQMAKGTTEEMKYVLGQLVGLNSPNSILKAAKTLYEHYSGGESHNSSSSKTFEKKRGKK
Read-out: enzyme activity
Mode: inhibitor
Tested at: 0.5 µM
Baseline: control
For `O=c1cc(N2CCOCC2)oc2c1ccc1ccccc12`, the remaining activity was 103%.
With `CC(C)[C@H](CO)Nc1nc(Nc2cccc(Cl)c2)c2ncn(C(C)C)c2n1` the remaining activity was 116%.
The remaining activity of `CC(=O)O/N=C1/C(c2c(O)[nH]c3cc(Br)ccc23)=Nc2ccccc21` is reported as 93.9%.
With `COc1ccc(-c2cnc3c(-c4ccsc4)cnn3c2)cc1` the remaining activity was 94.2%.
`O=C1NC(=O)/C(=C/c2ccc3nccnc3c2)S1` has a remaining activity of 102%.
For `COc1cc2ncnc(Nc3ccc(OCc4ccccc4)cc3)c2cc1OC`, the remaining activity was 96.8%.
With `Cc1nc(Nc2ncc(C(=O)Nc3c(C)cccc3Cl)s2)cc(N2CCN(CCO)CC2)n1` the remaining activity was 105%.
`Cn1cnc2cc3c(Nc4cccc(Br)c4)ncnc3cc21` has a remaining activity of 95.7%.
`O=C(Nc1ccc(Cl)cc1)c1ccccc1NCc1ccncc1` has a remaining activity of 102%.
`Nc1[nH]nc2nnc(-c3c(-c4ccccc4)nn4ccccc34)cc12` has a remaining activity of 110%.
`CS(=O)(=O)CCNCc1ccc(-c2ccc3ncnc(Nc4ccc(OCc5cccc(F)c5)c(Cl)c4)c3c2)o1` has a remaining activity of 102%.

Sample 4
Cell line: mouse MPNST tumor cells
Method: high-content nuclear imaging
Item: cell number
Tested at: 10 µM
Time: 12 h
Setting: mean of 2 replicates
Baseline: plate mean
Reading: higher = more cells
For `O=C(c1cn(Cc2cncn2Cc2ccc(Br)cc2)cc1-c1cccc2ccccc12)N1CCOCC1`, the nuclei count was 1.42 z-score.
`COc1ccc(OC)c(C2C(C#N)=C(N)Oc3n[nH]c(-c4ccc5ccccc5c4)c32)c1` (stereo not shown) has a nuclei count of -0.216 z-score.
The nuclei count of `CCOC(=O)c1ccc(NC2CCCCC2)c(N)c1` is reported as 0.716 z-score.
`COc1cc2c(cc1OC)-c1c/c(=N\c3c(C)cc(C)cc3C)n(C)c(=O)n1CC2` gave a nuclei count of 0.682 z-score.
`CCCn1c(=O)c2[nH]c(-c3ccc(OCC(=O)NCCN)cc3)nc2n(CCC)c1=O` gave a nuclei count of 2.29 z-score.
`C#C[C@]1(O)CC[C@H]2[C@@H]3CCc4cc(O)ccc4[C@H]3CC[C@@]21C` has a nuclei count of 0.621 z-score and 2.17 z-score.
With `COc1ccc(CCN2CCN(CCCc3ccccc3)CC2)cc1OC` the nuclei count was 2.51 z-score.
With `CC(C)N1CCN(c2ccc(OCC3COC(Cn4cncn4)(c4ccc(Cl)cc4Cl)O3)cc2)CC1` (stereo not shown) the nuclei count was -4.71 z-score.
`O=C(NCCO)c1cccc(-c2cc(Nc3ccc(OC(F)(F)F)cc3)ncn2)c1` has a nuclei count of 4.29 z-score.
With `CNc1ccc([N+](=O)[O-])cc1-n1cnc(-c2ccc(C(F)(F)F)cc2)c1` the nuclei count was 1.15 z-score.
The nuclei count of `Cc1cc(CCC[C@H](CC(=O)NO)C(=O)N[C@H](C(=O)N[C@H](C)c2ccccc2)C(C)(C)C)ccc1-c1ccccc1` is reported as -4.12 z-score.
With `CC(=O)O[C@H]1CC[C@@]2(C)C(=CC[C@@H]3[C@@H]2CC[C@]2(C)C(c4cccnc4)=CC[C@@H]32)C1` the nuclei count was 2.74 z-score.
For `CC1(CN2CCC(n3c(=O)[nH]c4ccccc43)CC2)OCc2ccccc2-n2cccc21` (stereo not shown), the nuclei count was 2.39 z-score.

A few entries again (sample 4):
`C#C[C@]1(O)CC[C@H]2[C@@H]3CCc4cc(O)ccc4[C@H]3CC[C@@]21C` has a nuclei count of 0.621 z-score and 2.17 z-score.
With `COc1ccc(CCN2CCN(CCCc3ccccc3)CC2)cc1OC` the nuclei count was 2.51 z-score.
With `CC(C)N1CCN(c2ccc(OCC3COC(Cn4cncn4)(c4ccc(Cl)cc4Cl)O3)cc2)CC1` (stereo not shown) the nuclei count was -4.71 z-score.
`O=C(NCCO)c1cccc(-c2cc(Nc3ccc(OC(F)(F)F)cc3)ncn2)c1` has a nuclei count of 4.29 z-score.
With `CNc1ccc([N+](=O)[O-])cc1-n1cnc(-c2ccc(C(F)(F)F)cc2)c1` the nuclei count was 1.15 z-score.
The nuclei count of `Cc1cc(CCC[C@H](CC(=O)NO)C(=O)N[C@H](C(=O)N[C@H](C)c2ccccc2)C(C)(C)C)ccc1-c1ccccc1` is reported as -4.12 z-score.
With `CC(=O)O[C@H]1CC[C@@]2(C)C(=CC[C@@H]3[C@@H]2CC[C@]2(C)C(c4cccnc4)=CC[C@@H]32)C1` the nuclei count was 2.74 z-score.
